# Measured values pooled from the literature.
# Parts stem from different laboratories: compare values within a part only. Changes are numbered by the printed parent chain.

# Set 1
# Target: CCND2, cyclin fold, Cln2 fusion (human)
# Technique: yeast growth competition, sequencing
# Medium: yeast
# Notes: weak parent motif
# Reference: not given
# Reading: higher = stronger binding
# Parent: PKN2 docking peptide (human); VSAVQKLDFSDTM
Substitution,normalised enrichment score
A3E,-0.253
S2V,0.443
S10K,0.813
D8M,0.653
F9T,-0.0127
D8R,0.299
S2M,0.566
A3N,0.0837
F9Q,0.245
D8P,0.403
S2Q,0.793
A3F,0.173
V4W,0.358
V4Q,0.196
S10I,0.587
D8F,0.256
S10V,0.425
S10F,0.185
V1A,0.377
D8A,0.301
M13L,0.546
S10G,0.543
V1P,0.566
S2P,0.431
K6P,0.0179

# Set 2
# Target: MAFG, bZIP domain (human)
# Technique: DHFR protein complementation
# Medium: yeast
# Notes: single substitutions, most at no-binding floor
# Reference: wild-type JUN-FOS pair
# Reading: higher = stronger binding
# Parent: JUN, bZIP domain (human); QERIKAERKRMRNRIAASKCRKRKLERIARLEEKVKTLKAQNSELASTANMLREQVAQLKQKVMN; partner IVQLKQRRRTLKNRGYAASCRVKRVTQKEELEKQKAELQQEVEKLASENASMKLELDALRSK
Substitution,binding fitness
L31N,-1.38 natural log
S43G,-1.37 natural log
Q55K,-1.58 natural log
E33S,-1.52 natural log
A49C,-1.45 natural log
K39D,-1.48 natural log
T48V,-1.33 natural log
L31A,-1.38 natural log
M51D,-1.48 natural log
T37G,-1.5 natural log
E44A,-1.47 natural log
K39E,-1.44 natural log
R53N,-1.25 natural log
L59W,-1.33 natural log
T48L,-1.48 natural log
E44Q,-1.4 natural log
E44I,-1.45 natural log
T37H,-1.41 natural log
S43T,-1.35 natural log
L31C,-1.32 natural log
N42K,-0.95 natural log
A46V,-1.49 natural log
Q41M,-1.28 natural log
A29T,-1.45 natural log

# Set 3
# Target: RNA binding protein fox-1 homolog 2, RRM domain, GST-SBP tag (RBFOX2, Homo sapiens, UniProt O43251-10, residues 100-194)
# Technique: RNA Bind-n-Seq
# Molecule type: RNA
# Medium: in vitro
# Concentration: 365 nM
# Notes: natural RNA segment, single round, ends assumed
# Reference: no-protein control
# Reading: higher = stronger binding
# Constant ends, left off below: GGGAGUUCUACAGUCCGACGAUC … UGGAAUUCUCGGGUGCCAA
# Target sequence (chain): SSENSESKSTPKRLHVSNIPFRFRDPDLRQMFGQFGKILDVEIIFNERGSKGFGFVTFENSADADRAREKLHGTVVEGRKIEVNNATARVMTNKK
Sequence,RBNS enrichment (R)
ACCUGUGCACAAGGGAAAUAACUUAGGCACUUUCGGAGUUUGUGUUUGUUUUGUUUUGUUUAAUAAGGUCCCAUGGCUUCUUUGGGAAUCCACGAUAAGAAAAACAACCC,0.689
CUCAAGCUCAAGGAACUCACCCCCAGAUAAGAAGCUGGUGCCUCUUGUCUCUCUCAUUUCAGAAACGGACUUUCUCAUCAUGCUUUCCUAUGGUGGGUAUGAGGGGCCAG,0.253
AGAUGCCAGCAAGGAUGGAAGCAUCAGGCUCACAGGUGUGUGUGUGUGUGUGCACGCGUUCGCACAUGCGUGAGUGUGUAGCAGAAGUGUGUACAGAGAGGCCCGUGCUA,0.45
UCUCCUUUUCCUGCCUCCUCCCUAAAUAGCUGCCUUCUAGUGCUGUAGCAAGGGAGCCCUACUGCAUAGCCAGUAACUCGCGUCUGUACCAUGGAAAGGGCGGAACGAUU,0.42
CUUGUAAAGCGGUGAUACAACUUGUCAAAUAUUUAAUAAAGAAUUACGGAAGCUGGAACAUUUCCUACAUAAGUAUCAUGGGUUGUCUGGCUUAAAGCUUCUUCAGGAAU,0.533
GGUUGUGCUGGGCAGCAUUUGUACAUACAUGCGCGCAUUUAGUUUGCAGUUAAUUCCUGCUGCGCUGCCCACAGUGGCUUCCUCCCUUCAGUUUGUCCCUGAGACCCCUG,0.216
GGAACAAAAGAAACUGGAAAGGAAGAUGCUUUAGGAACAUGUUUUGCUUUUUUAAAAUAUAUAUAUAUUUAUAAGAGAUCCUUUCCCAUUUAUUCUGGGAAGAUGUUUUU,0.994
AGACCCUGUUUACUCCAUGCCUGUUCAAAAGUCAUUUUGACUUCUAGCUUUGUUUCACUUUCUUCUUUCAAUACUUCUGUUUCCUCGUCCUUUUCCUUCAUAUUCCAUGG,5.12
UCGUCCUUUGUUUGCCUUUGUGGAAAGACAGAAGGCUGGCCUCCACUCUCAGCUUGCAGGUCUUCGUGAGUCACUGAGAGGAUUCCAGGCAGCUAUCUCGAGAGCCACUG,4.05
CAUCCAGAGUUACUGUGUGACUUGGUCCUGCCAUCGUUAGCUUUGAAAUCACAGGCAUUGGGCUCUGUUUUGACACCAUUCAUUGGACUGCGGGACAGUCAUUCUUUACG,0.536
GAGGAGACUUCCAGGAAGACACGUGCCUUCUGCCCCCGUGGACCUGCGCUCCUCCCAACACAGACGCAGUGGCCUGCGCAGAGCACUCAGGGCCAGUGCCAUCUGUGAUU,0.328
AGGGGUACAGUUACCCUCCCCCACGCCAUCCUUGUAGGACUCCAUGCUGCCAGUUUCUUUUUUGGUUCCUUUCUGCCCAGGACUGCAUGAGUUUCCCAGCCCCAAGUGGG,6.21

# Set 4
# Target: Histone acetyltransferase KAT6A, winged helix 1, GST fusion (KAT6A, Homo sapiens, UniProt Q92794, residues 1-85)
# Technique: protein binding microarray
# Molecule type: double-stranded DNA, one strand shown
# Medium: in vitro
# Concentration: not given
# Notes: 8-mer, flanks averaged, mean of 2 arrays, mostly near background
# Reference: not given
# Reading: higher = stronger binding
# Target sequence (chain): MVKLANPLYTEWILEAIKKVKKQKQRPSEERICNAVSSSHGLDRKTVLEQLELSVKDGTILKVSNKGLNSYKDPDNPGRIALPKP
Sequence,E-score
GGTGTTAA,0.0211
AGCGGTCC,0.196
GCGGTACA,0.345
AAACCAGC,-0.00774
AAATAACA,0.0219
AGTGTCAA,-0.185
AGCATGAA,-0.17
GCGGGAGA,0.271
AATCCGCT,0.111
CGGACTCC,0.158
GCTACGAA,-0.0121
GCTCAGCA,-0.128
CGCGTTAC,0.374
TCGCCAGA,-0.169
CGTAAGAG,0.062
GGTTCAAC,0.124
GTCTACCA,-0.196
GCAATTAC,0.228
AAACGCGC,0.372
AGAGTCAG,-0.00687
CGTACATC,0.0702
CTGCCGGA,0.055
GCGGGTCA,0.241
GCAGCATA,-0.0821
ACTCTGCG,0.0483

# Set 5
# Target: ABI1, truncated, D143A, DHFR fusion (Arabidopsis thaliana)
# Technique: DHFR PCA, deep sequencing
# Medium: yeast
# Notes: methotrexate growth selection, single substitutions
# With: (+)-ABA 0.032 µM
# Reference: wild-type fitted maximum
# Reading: higher = stronger binding
# Parent: PYL1, truncated, DHFR fusion (Arabidopsis thaliana); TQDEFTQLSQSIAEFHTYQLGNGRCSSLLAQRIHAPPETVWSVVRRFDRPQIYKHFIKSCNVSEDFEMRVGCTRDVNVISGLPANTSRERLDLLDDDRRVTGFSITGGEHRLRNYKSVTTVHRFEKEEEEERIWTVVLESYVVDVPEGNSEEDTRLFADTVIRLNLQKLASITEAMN; partner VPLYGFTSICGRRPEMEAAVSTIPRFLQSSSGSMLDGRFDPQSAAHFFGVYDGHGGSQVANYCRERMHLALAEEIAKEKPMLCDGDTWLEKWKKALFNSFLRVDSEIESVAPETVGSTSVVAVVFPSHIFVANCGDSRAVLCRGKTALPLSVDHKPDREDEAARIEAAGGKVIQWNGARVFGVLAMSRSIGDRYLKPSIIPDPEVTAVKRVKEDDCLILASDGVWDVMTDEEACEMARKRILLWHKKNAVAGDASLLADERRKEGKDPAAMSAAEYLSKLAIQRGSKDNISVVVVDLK
Substitution,relative binding score
L138I,-4.45%
T120W,-0.148%
L82K,-0.984%
V62A,1.81%
E125D,19.3%
D144V,0.392%
D65H,17.8%
N77K,54.4%
P50I,-2.96%
N77G,12%
R74L,0.659%
E109F,3.76%
Q19D,45.2%
A13Y,3.04%
K116Y,2.08%
N165V,4.55%

# Repeated from above (set 2):
Substitution,binding fitness
A49C,-1.45 natural log
L31N,-1.38 natural log
A46V,-1.49 natural log
E44A,-1.47 natural log
E44Q,-1.4 natural log
S43G,-1.37 natural log
M51D,-1.48 natural log
S43T,-1.35 natural log
N42K,-0.95 natural log
L31C,-1.32 natural log
R53N,-1.25 natural log
Q55K,-1.58 natural log
T37H,-1.41 natural log
L31A,-1.38 natural log
E33S,-1.52 natural log
L59W,-1.33 natural log
